Results from different studies.
Numbered parts are unrelated; each lists some results of a single study.
UniProt Q13976, sequence (whole entry, looked up): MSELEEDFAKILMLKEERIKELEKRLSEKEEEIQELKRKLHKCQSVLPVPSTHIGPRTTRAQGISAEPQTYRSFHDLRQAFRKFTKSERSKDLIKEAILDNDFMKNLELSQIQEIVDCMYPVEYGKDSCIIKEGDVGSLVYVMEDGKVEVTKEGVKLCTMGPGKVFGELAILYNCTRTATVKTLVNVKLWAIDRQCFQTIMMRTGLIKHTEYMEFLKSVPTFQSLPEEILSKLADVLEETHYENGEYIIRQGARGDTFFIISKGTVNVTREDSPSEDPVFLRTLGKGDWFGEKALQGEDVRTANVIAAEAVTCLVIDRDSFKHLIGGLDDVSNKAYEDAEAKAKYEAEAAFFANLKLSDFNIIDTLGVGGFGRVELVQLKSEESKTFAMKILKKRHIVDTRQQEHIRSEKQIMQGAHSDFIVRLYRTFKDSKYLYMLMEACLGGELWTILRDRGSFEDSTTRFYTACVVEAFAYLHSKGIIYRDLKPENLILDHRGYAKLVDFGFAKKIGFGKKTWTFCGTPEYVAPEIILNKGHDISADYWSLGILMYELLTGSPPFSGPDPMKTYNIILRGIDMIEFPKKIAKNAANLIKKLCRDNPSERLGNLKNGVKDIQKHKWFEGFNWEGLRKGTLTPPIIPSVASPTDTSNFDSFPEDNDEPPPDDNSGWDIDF
UniProt Q96BR1, sequence (whole entry, looked up): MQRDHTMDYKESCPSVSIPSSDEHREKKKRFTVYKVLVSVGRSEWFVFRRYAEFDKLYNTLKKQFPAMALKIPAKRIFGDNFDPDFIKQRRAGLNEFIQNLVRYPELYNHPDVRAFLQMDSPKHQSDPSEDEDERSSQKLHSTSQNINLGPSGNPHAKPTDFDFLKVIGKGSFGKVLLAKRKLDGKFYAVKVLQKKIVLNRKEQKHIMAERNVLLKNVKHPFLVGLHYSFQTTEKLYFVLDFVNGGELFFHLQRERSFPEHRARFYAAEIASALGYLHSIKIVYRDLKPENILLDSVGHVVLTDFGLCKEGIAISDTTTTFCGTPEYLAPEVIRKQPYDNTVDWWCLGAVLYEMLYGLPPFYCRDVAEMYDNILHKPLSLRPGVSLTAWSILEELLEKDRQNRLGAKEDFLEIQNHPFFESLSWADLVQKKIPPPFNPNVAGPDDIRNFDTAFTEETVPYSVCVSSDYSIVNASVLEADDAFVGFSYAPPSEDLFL
UniProt Q99558, sequence (whole entry, looked up): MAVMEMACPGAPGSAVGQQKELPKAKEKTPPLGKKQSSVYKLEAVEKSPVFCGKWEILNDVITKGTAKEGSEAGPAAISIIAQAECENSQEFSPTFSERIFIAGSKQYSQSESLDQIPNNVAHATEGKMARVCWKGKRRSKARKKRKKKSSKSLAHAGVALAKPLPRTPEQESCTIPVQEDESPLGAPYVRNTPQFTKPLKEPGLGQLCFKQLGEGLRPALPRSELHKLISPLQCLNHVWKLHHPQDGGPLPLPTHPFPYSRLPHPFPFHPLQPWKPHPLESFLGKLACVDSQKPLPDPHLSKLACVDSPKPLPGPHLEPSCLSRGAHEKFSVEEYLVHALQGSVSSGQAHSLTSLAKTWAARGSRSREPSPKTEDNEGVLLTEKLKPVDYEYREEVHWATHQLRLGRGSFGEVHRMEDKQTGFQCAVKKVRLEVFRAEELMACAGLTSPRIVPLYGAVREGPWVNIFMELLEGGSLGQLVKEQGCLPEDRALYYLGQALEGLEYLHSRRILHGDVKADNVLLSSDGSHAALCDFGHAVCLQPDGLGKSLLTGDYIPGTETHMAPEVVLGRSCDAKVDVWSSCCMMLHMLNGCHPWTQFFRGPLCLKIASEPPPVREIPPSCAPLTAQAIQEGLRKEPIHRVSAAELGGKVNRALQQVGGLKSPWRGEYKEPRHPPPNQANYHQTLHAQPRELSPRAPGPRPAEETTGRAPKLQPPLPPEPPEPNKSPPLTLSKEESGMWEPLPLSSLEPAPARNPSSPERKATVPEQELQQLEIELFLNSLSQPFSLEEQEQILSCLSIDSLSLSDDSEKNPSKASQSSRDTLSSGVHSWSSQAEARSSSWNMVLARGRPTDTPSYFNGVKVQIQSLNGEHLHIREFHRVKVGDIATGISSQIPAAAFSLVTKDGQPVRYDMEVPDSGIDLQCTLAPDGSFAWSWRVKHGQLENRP
UniProt Q9NYY3, sequence (whole entry, looked up): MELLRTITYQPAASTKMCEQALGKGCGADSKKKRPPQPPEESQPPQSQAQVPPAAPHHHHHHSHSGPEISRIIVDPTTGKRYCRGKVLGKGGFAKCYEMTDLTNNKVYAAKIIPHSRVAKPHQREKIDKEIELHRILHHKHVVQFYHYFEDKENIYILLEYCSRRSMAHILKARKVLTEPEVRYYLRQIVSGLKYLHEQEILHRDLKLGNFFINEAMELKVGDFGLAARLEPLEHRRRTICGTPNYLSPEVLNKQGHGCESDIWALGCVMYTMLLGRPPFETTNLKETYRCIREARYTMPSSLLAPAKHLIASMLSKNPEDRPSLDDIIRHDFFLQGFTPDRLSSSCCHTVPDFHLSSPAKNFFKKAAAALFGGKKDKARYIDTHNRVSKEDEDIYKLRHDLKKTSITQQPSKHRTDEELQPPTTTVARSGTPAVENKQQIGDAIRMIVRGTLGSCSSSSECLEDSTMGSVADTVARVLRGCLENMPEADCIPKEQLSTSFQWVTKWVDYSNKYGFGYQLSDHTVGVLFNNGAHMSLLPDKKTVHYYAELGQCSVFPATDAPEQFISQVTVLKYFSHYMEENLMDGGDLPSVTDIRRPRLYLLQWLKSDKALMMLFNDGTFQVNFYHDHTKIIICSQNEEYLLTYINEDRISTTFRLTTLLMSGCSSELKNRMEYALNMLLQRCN
UniProt P10721, sequence (whole entry, looked up): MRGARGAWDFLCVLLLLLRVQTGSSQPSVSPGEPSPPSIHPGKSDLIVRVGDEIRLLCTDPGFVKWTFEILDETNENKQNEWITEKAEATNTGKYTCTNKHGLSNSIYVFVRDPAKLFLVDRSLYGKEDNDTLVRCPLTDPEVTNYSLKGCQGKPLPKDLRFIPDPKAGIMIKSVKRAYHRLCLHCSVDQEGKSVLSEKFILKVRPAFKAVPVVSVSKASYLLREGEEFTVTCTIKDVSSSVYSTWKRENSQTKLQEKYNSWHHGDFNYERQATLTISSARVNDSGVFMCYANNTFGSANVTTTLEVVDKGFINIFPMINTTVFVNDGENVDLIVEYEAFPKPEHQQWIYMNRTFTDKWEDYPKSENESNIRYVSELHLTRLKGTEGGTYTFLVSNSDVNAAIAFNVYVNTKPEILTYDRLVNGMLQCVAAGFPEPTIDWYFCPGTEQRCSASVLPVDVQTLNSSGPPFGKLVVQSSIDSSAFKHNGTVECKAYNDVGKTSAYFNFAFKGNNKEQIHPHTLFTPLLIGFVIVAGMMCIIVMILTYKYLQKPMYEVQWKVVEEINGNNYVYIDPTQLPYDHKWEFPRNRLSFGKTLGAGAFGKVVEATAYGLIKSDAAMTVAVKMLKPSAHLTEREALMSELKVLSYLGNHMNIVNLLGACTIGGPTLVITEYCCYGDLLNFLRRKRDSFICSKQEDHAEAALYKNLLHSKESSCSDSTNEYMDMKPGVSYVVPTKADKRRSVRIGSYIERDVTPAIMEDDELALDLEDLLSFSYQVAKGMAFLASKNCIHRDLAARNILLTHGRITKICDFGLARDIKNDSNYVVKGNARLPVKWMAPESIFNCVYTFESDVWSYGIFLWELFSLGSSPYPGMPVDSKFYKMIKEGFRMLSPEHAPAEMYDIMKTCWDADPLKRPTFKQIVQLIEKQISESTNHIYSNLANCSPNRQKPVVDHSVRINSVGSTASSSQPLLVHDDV
UniProt Q9NRH2, sequence (whole entry, looked up): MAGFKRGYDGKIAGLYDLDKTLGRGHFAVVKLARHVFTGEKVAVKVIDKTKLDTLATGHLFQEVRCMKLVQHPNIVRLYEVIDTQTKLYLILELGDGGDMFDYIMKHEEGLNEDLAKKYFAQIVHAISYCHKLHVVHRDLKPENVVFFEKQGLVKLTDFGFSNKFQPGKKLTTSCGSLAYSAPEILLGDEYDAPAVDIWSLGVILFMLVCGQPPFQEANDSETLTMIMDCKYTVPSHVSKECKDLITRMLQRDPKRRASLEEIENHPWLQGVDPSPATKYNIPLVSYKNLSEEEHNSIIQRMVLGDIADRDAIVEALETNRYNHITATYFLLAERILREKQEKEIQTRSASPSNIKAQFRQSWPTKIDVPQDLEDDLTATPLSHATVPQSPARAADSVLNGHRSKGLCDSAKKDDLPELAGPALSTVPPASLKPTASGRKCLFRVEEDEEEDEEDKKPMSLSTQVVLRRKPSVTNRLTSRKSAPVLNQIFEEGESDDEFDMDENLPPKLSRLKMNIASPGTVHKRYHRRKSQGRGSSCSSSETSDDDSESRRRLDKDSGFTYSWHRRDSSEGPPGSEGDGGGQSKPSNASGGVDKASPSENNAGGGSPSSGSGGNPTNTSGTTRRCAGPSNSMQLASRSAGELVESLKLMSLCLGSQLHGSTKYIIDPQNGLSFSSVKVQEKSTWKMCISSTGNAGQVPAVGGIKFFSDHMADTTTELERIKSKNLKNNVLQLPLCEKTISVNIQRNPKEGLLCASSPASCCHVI

Set 1
SMILES: CC1=C(C#N)C(c2ccc3c(c2)c(NC(=O)c2ccccc2C)nn3C)C(C#N)=C(C)N1
Observed: cell-free assay
Method: competition with immobilised ligand
Concentration: 1 µM
The remaining binding was 100% (KIT (Homo sapiens, UniProt P10721)).
The remaining binding was 100% (SNRK (Homo sapiens, UniProt Q9NRH2)).
For SGK3 (Homo sapiens, UniProt Q96BR1): remaining binding read 95%.
The remaining binding was 100% (PRKG1 (Homo sapiens, UniProt Q13976)).
It gave 96% for remaining binding (MAP3K11 (Homo sapiens, UniProt Q16584)).
PIK3CA (Homo sapiens, UniProt P42336, H1047Y) — remaining binding: 91%.
For PIKFYVE (Homo sapiens, UniProt Q9Y2I7): remaining binding read 87%.
For PLK2 (Homo sapiens, UniProt Q9NYY3): remaining binding read 74%.
The remaining binding was 88% (EGFR (Homo sapiens, UniProt P00533, del752-759)).
It gave 69% for remaining binding (MAP3K14 (Homo sapiens, UniProt Q99558)).

Set 2
Target: Calcium/calmodulin-dependent protein kinase type II subunit alpha (CAMK2A, Homo sapiens, UniProt Q9UQM7)
UniProt Q9UQM7, sequence (whole entry, looked up): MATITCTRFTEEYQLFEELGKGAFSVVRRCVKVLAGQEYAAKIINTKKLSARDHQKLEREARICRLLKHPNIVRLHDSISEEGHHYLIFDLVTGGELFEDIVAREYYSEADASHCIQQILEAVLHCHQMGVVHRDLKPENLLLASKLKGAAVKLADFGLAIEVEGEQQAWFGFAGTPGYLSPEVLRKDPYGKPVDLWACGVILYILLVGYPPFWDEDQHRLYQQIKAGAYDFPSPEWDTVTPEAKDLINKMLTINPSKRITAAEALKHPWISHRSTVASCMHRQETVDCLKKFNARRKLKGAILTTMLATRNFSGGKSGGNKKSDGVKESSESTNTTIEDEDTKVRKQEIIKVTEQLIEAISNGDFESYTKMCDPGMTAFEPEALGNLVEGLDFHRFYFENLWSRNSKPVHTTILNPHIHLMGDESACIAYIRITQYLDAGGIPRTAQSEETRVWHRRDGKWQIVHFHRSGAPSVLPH
Observed: enzyme activity
Mode: inhibitor
Concentration: 10 µM
`O=C(O)CNC(=O)Cc1ccccc1` has an inhibition of -21%.
For `N[C@@H]1c2cccnc2[C@H](OC(=O)N2CCC(n3c(=O)[nH]c4ncccc43)CC2)CC[C@H]1c1cccc(F)c1F`, the inhibition was 1%.
`CCCOC(C(=O)OC1CCN(C)CC1)(c1ccccc1)c1ccccc1` gave an inhibition of 3%.
For `CC(=O)N[C@@H](Cc1c[nH]c2ccccc12)C(=O)O`, the inhibition was 37%.
The inhibition of `CC(C)=C[C@@H]1CO[C@]23C[C@]4(CO2)[C@H](CC[C@@H]2[C@@]5(C)CC[C@H](O[C@@H]6OC[C@H](O)[C@H](O[C@@H]7O[C@H](COS(=O)(=O)O)[C@@H](O)[C@H](O)[C@H]7O)[C@H]6O[C@@H]6O[C@@H](CO)[C@H](O)[C@H]6O)C(C)(C)[C@@H]5CC[C@]24C)[C@H]3[C@@]1(C)O` is reported as -11%.
With `COc1ccc2nc3cc(Cl)ccc3c(Nc3cc(CN4CCCC4)c(O)c(CN4CCCC4)c3)c2n1` the inhibition was 6%.

Set 3
Target: Serine/threonine-protein kinase 17A (STK17A, Homo sapiens, UniProt Q9UEE5)
Observed: enzyme activity
Mode: inhibitor
Concentration: 0.5 µM
Baseline: control
Construct (Q9UEE5 1-414): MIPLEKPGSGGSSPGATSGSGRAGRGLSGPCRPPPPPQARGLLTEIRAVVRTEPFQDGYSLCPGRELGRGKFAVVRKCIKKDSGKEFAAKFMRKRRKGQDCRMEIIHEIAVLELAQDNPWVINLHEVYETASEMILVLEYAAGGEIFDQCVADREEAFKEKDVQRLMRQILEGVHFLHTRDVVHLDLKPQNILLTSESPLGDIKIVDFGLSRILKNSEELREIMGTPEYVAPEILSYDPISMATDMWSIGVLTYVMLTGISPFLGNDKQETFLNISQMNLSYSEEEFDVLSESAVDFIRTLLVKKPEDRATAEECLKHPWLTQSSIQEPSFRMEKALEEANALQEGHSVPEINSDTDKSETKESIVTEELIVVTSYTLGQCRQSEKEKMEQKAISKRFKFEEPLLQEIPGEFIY
The remaining activity of `Oc1ccc(-c2nc(-c3ccncc3)c(-c3ccc(F)cc3)[nH]2)cc1` is reported as 101%.
With `Cc1ccc(Nc2nccc(N(C)c3ccc4c(C)n(C)nc4c3)n2)cc1S(N)(=O)=O` the remaining activity was 95.9%.
The remaining activity of `O=C(CCCc1ccc(-c2ccccc2F)cc1)Nc1ccc(O)cc1` is reported as 101%.
The remaining activity of `Cn1sc(=O)n(Cc2ccccc2)c1=O` is reported as 101%.
The remaining activity of `CNC(=O)c1cc(Oc2ccc(NC(=O)Nc3ccc(Cl)c(C(F)(F)F)c3)cc2)ccn1` is reported as 96%.
`O=C1NC(=O)C(c2cn(CCCO)c3ncccc23)=C1c1cnccn1` has a remaining activity of 93.6%.
`N#CC(C#N)=C(N)/C(C#N)=C/c1ccc(O)cc1` has a remaining activity of 72.8%.
The remaining activity of `Nc1[nH]nc2nc3ccccc3nc12` is reported as 95.2%.
For `Nc1ncnc2n[nH]c(Nc3ccc(F)cc3)c12`, the remaining activity was 88.1%.
`OCC(O)CCON=C1C(c2c(O)[nH]c3ccccc23)=Nc2ccccc21` (stereo not drawn) has a remaining activity of 22.5%.
For `COc1cc2ncnc(Nc3ccc(Oc4ccccc4)cc3)c2cc1OC`, the remaining activity was 96.3%.
For `CN(C)c1ccc(C=C2C(=O)Nc3ccccc32)cc1`, the remaining activity was 93.8%.
For `Nc1ccc2ncnc(NCCc3ccc(Oc4ccccc4)cc3)c2c1`, the remaining activity was 96.9%.
`O=C(O)c1ccc2c3c1cccc3c(=O)n1c3ccccc3nc21` has a remaining activity of 73.4%.

Set 4
Species: mouse
Sample: microsomes or S9
Concentration: 2 µM
Time: 0.5 h
For `O=S1(=O)CC2Sc3ncnc4ncn(c34)C2C1` (stereo not drawn), the remaining compound was greater than 99%.
`Cc1nc(NC(=O)CCCCF)c(N)cc1Br` has a remaining compound of 45.3%.
For `O=C(COC(=O)c1ccc(Br)o1)c1ccc(Cl)c(Cl)c1`, the remaining compound was 79.1%.
For `CC(C)(C)c1cc(NC(=O)CSC2=NN/C(=C3\C=c4ccccc4=N3)N2c2ccccc2)on1`, the remaining compound was 3.43%.
`Cn1nc(C2CCN(C(=O)[C@H]3CC(=O)NC(=O)N3)CC2)n(-c2ccccc2)c1=O` has a remaining compound of 77.8%.
`COc1cc2ccccc2cc1C(=O)N(CCN(C)C)c1nc2c(F)cccc2s1` has a remaining compound of 3.15%.
